{"data": "Measured values of several laboratories", "note": "A part holds a random share of what one study measured.", "UniProt Q12851, sequence (whole entry, looked up)": "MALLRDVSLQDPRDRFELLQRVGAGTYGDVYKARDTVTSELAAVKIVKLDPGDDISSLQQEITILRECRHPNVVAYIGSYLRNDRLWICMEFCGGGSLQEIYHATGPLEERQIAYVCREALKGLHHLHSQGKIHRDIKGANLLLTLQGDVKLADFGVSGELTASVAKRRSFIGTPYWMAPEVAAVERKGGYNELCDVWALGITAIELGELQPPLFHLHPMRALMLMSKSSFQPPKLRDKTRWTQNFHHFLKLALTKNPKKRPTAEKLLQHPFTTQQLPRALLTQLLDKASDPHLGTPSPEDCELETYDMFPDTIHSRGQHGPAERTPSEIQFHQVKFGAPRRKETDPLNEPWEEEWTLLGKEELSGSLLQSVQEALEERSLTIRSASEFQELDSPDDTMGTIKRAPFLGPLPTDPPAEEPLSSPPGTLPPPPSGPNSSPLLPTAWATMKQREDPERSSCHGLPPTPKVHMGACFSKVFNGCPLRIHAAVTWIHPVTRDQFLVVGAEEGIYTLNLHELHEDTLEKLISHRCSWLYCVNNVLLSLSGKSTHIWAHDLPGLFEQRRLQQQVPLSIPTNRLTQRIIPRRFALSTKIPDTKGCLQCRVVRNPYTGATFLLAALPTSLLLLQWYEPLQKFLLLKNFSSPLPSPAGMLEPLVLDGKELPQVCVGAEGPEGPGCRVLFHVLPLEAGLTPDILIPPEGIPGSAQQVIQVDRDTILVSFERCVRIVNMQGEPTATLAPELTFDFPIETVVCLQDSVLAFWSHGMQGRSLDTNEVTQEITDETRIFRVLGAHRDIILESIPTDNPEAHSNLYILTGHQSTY"}
{"data": "Study 1", "target": "Histone acetyltransferase KAT6A, both winged helices, GST fusion (KAT6A, Homo sapiens, UniProt Q92794, residues 1-181)", "method": "protein binding microarray", "molecule type": "double-stranded DNA, one strand shown", "sample": "in vitro", "concentration": "not given", "setting": "8-mer, flanks averaged, mean of 2 arrays, mostly near background", "baseline": "not given", "reading": "higher = stronger binding", "Construct (chain)": "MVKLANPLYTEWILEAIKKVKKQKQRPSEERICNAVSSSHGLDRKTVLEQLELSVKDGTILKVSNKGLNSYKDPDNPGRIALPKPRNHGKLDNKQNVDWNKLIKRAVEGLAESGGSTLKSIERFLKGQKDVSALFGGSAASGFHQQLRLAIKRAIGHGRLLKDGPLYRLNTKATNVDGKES"}
{"Strand": "AGTGGTCG", "E-score": -0.133}
{"Strand": "GGCGTGCA", "E-score": 0.159}
{"Strand": "AGAAGGAG", "E-score": -0.124}
{"Strand": "CTGCCATC", "E-score": -0.138}
{"Strand": "GTGCTCCA", "E-score": -0.0964}
{"Strand": "CCATGTGA", "E-score": -0.174}
{"Strand": "CCGAACTC", "E-score": -0.102}
{"Strand": "CGGATGTC", "E-score": 0.229}
{"data": "Study 2", "target": "RNA binding protein fox-1 homolog 2, RRM domain, GST-SBP tag (RBFOX2, Homo sapiens, UniProt O43251-10, residues 100-194)", "method": "RNA Bind-n-Seq", "molecule type": "RNA", "sample": "in vitro", "concentration": "365 nM", "setting": "natural RNA segment, single round, ends assumed", "baseline": "no-protein control", "reading": "higher = stronger binding", "constant ends, left off below": "GGGAGUUCUACAGUCCGACGAUC … UGGAAUUCUCGGGUGCCAA", "Target sequence (chain)": "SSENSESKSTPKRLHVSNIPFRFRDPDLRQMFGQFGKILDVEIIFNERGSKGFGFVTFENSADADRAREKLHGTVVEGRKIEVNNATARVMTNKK"}
{"Strand": "AUCUGCCAUCUUUGAACUCAUCUUUGGUGGCUAGACUGCUACGGCAGCUUCUCUGAUGGGAAAGUUCCUUUUUUGGCUUAACACUCACCCUUUCUUCACACUCACAUUUA", "RBNS enrichment (R)": 0.336}
{"Strand": "CAUUAACUUCUCUGGAAAGGGGGGAGCUGGGGAAACUCAAACUUUUCCCCUGUCCUGAUGGUCAGCUCCCUUCUCUGUAGGGAACUCUGGGGUCCCCCAUCCCCAUCCUC", "RBNS enrichment (R)": 0.322}
{"Strand": "UUCACUGGAUUUCUUUAGACAUUGAAGCAAACAUUUUUUUCUAAGAAUUGCUUCUCAGAUGAUGAUAUCAAAUGUAUAUGCUUUUGCAAGUUUGAAAAGUUCAAAUUAAC", "RBNS enrichment (R)": 0.506}
{"Strand": "GAACUGGAUGCACUGGCCAUAGCUAGCAUCAAUGUCCCCGUGUUUCCAGGAACCCCUGCCAUGAGGCCAUCAUAGAUCCAGACUCGGGAUGUGGGCUCCAAACCAGAAUA", "RBNS enrichment (R)": 0.608}
{"Strand": "AUGGCACGUGACUUUUAAGCAGUAGGAUUUUGCCAAGCAGAAUUUUUGAAGGCAUGAGGCCAGUGACCCAAAGCACAGGUGCAAGUGUGCCUGGAAGGCUUCCAGCCAAA", "RBNS enrichment (R)": 1.32}
{"Strand": "CCAAUGGCUCAUGCCUGUAAUCCCAACACUUUGGGAGGCCAAGGUGGGAGGAUGGCUUGUGUCCAGAAGUUCGAGACCAGCCUGGACAACAUAGUGAGAUCCUAUCUCUA", "RBNS enrichment (R)": 0.227}
{"Strand": "ACUCUAAUGUGACUGUAUAUACUGCUCGGAGUAAGAAUGUGCUAAGAUCAGAAUGCCUGUUCGUGGUUUCAUAUAAUAUAUUUUUCUAAAAGCAUAGAUUGCACAGGAAG", "RBNS enrichment (R)": 0.765}
{"Strand": "AUAGCCACUAACUCUGCAACAAUCCUUGGCUGUUGUCAUUGUUGUCUUUAUUUUAGGCUGGAUUUCAGAUGUGUUGCUUCUGAAGACACAAUGAAAGAAUGCAAUCUUCC", "RBNS enrichment (R)": 2.07}
{"data": "Study 3", "target": "PABPC1L2, full length, GST fusion (mouse, UniProt A0ABA7IW68)", "method": "RNAcompete", "molecule type": "RNA", "sample": "in vitro", "concentration": "20 nM", "setting": "7-mer, probes averaged, single round", "baseline": "mean of 7-mers", "reading": "higher = stronger binding", "Construct (chain)": "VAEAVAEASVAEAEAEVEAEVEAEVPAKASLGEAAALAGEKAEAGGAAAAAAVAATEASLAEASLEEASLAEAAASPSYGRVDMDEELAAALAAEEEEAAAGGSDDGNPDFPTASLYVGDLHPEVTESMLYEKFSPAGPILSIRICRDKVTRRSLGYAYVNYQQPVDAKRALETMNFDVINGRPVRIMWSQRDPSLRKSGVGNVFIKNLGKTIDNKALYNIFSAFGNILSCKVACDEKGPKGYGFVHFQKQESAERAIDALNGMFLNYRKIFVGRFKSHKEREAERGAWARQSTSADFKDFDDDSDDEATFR"}
{"Strand": "GCCUGCG", "7-mer Z-score": -0.262}
{"Strand": "GAUUUGU", "7-mer Z-score": -0.311}
{"Strand": "UGGAGAG", "7-mer Z-score": 0.0207}
{"Strand": "GAGGUGC", "7-mer Z-score": 0.249}
{"Strand": "UAGUUAU", "7-mer Z-score": -0.195}
{"Strand": "CAACUAU", "7-mer Z-score": -0.0192}
{"Strand": "CGGUUUA", "7-mer Z-score": -0.267}
{"Strand": "UGGGAGA", "7-mer Z-score": 0.0932}
{"data": "Single results of other studies"}
{"SMILES": "c1ccc(-c2cnc(Nc3ccc(OCCN4CCCC4)cc3)s2)cc1", "target": "Mitogen-activated protein kinase kinase kinase kinase 2 (MAP4K2, Homo sapiens, UniProt Q12851)", "test": "enzyme activity, inhibitor", "conditions": "0.5 µM", "how to read": "baseline: control", "measurement": "remaining activity", "result": "113%"}
{"note": "Repeated from above (study 1):"}
{"Strand": "CCATGTGA", "E-score": -0.174}
{"Strand": "CCGAACTC", "E-score": -0.102}
{"Strand": "CGGATGTC", "E-score": 0.229}
